Experimental data collected from several papers.
Every numbered part comes from another study and shows a few of its results, in no order. Changes are numbered by the printed parent chain.

Study 1 — technique: RNA Bind-n-Seq; molecule type: RNA; sample: in vitro; tested at: not given; notes: RNA with constant flanks, ends assumed; relative to: input RNA pool; direction: higher = stronger binding
Target: RING finger protein unkempt homolog, zinc fingers 1-6, GST-SBP tag (UNK, Homo sapiens, UniProt Q9C0B0, residues 30-357)
Residues (chain): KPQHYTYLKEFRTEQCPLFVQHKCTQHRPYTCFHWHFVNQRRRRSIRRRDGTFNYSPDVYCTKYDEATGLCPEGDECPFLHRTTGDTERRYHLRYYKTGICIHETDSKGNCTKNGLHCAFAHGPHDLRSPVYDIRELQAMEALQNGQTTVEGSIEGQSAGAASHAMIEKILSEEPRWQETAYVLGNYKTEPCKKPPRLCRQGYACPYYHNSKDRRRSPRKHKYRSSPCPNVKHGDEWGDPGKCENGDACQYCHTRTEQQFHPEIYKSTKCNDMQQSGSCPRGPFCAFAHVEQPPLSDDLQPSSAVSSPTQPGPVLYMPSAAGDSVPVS
Strand	bound/input enrichment [ratio]
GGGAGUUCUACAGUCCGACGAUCUUUGCAAGAAAAAAGACCCGUGUCCUGUCCUUUGUUUGUAACAGUUGCAACACUUGAUAUUUCCGAGGGGUCUUUUACUCUCUUCAAACGUCCUUGAUGUGGUCUGUAAAUUCUGUUUCACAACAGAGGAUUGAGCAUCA	0.169
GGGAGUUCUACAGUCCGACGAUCGUGUCCACCUCAGCAGGGGGAAUAAUGACUGCACCAGCCAUUGACAUAUUUUCUACCCCCCGUUCUUCUAACAGCACAUCUAAGCUGCCAAAUGACCUGCUUGACUUGCAGCAGCCAACCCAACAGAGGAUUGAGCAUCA	0.202
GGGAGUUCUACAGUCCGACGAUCUUGAUUCAUAGGGAUAUUAAAGCAGGAAAUAUUCUUCUAACAGAGCCAGGUCAGGUAAAACCCGCUGAUUUUGGAUCUGCUUCAAUGGCUUCUCCUGCCAACUCCUUCGUGGGCACACCUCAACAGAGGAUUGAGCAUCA	0.0653
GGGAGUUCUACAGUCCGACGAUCUUCCUAAUAGAUACUAGAUUGUAUUGAAUUCUGUUUUAAUUAUUCUCUAGGUAAGUAUGUUUCCGGAUUAAAUACCUUUUACAGAUACUGAAAGUGCCUCCUUUUGUGGUGUAAAAAACACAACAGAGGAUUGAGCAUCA	1.4
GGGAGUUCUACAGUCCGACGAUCGAUGGUGCUGUCUUCUUUAACAAAGAAAGAACGAGGAAUAUUGUGAAAUUUGACUUGAGGACCCGAAUUAAGAGUGGCGAGGCCAUAAUUAACUAUGCCAACUACCAUGAUACCUCACCACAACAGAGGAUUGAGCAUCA	0.11
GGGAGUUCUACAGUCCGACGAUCGAAACUAUUCCUAAAGAGGAGAAAGCUGAAAAGGAAGCUCGGAGAUCAUCUCUUGAGAAACACCGAAAAGAAAAGCCUUUUAAAACCGGGAGAGGCAGAAUUUCCACUCCUGAAAGAAAACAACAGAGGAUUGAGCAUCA	0.136
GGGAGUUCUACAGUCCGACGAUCUGUGAAACCCAGAAAUGGACUGUGAAUGGACAGCUGAGGGUUGGAUUUUUUACCACCAAACCCGUUCCUUCAGGCUCAGAAUUAACUUUUGACUACCAGUUCCAAAGAUAUGGCAAAGAACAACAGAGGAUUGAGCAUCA	0.198
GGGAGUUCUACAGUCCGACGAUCCAGAUGGUCACCAGCUCUCAGAGCUGCACACAGCUGCUCUAGGGGAAAUGACCCAGAGCUCCGCUCACUGUAGAGGAAUGUCCUUGGCGGAAUAGGAGAUAAGAGAAAACUCCAAUCUGACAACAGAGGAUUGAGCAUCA	0.0608
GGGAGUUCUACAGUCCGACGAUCGAUACAUCCAACAGAGUAACAGUCAAGAGCCUUGAUUAUAGUAGGAAGCUGAAAAAUGUAUCCGUUACCAUUUACUGGCUGGGAAAAGCAGCAAACAGCUGCACAUCCUACAGCGGAACGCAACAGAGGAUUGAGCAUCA	0.263
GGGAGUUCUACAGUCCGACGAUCUGGACUCACGUUGGACCUACUCCUGCGAUAACUAUUAAGGAAACAGUUGCCAACCACUUGCCGUUACAAAACCAAACCUGGGACAUACUUACUUCGCAGGUAUAAAGCCUCAGUUUUAACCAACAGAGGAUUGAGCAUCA	0.27
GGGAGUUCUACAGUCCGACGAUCAUGUCUGCCAGAACACAAUUUAUAUGCCGAAUUAUUGGCUCCAUUAAACUUUUUAAAAACUUCCGCACUGGUUACUUUUUUCCAUUGCAUUCAAUAUGUAGCACCUCCUCACCUCAUGAGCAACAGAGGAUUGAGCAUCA	2.81

Study 2 — technique: RNA Bind-n-Seq; molecule type: RNA; sample: in vitro; tested at: 365 nM; relative to: no-protein control; direction: higher = stronger binding
Target: RNA binding protein fox-1 homolog 2, RRM domain, GST-SBP tag (RBFOX2, Homo sapiens, UniProt O43251-10, residues 100-194)
Notes: natural RNA segment, single round, ends assumed
Residues (chain): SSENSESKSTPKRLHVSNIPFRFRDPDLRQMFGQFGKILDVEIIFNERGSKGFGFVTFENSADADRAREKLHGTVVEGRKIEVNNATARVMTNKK
Strand	RBNS enrichment (R)
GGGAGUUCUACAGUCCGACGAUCCAGUAUUCUGUUCCCCAGGCAUACAGCAUCAUAUAUUAAAGCCACAGCAGAAGAGGAAUGUCGCCCACUGAGGCCACCCAGAUGCAGAGUCUAGGAUUCCUUGCCCACUGUGGAAUUCUCGGGUGCCAA	1.1
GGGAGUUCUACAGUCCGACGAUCUGUGGGAUGAGAUAACACCACAUCCUGCAGCUGUGAAGGGGGAUGGACAAGGGACGACGGCCGACGGCAGAGCAUCAGCAGCCGACACAUAGUUCGGGUCGGGGCCUUGGUGGAAUUCUCGGGUGCCAA	0.461
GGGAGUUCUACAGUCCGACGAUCUACCCAGUCCUAUGCUGUAUCUCUGAUAGCCUAUAUAAAUGACAUAUAGGAAUAUUAUUUUCCAUAUGAUCUGUUGUAUGGUGUAUAUGCUAUGUGUUCAUUUCGUGUGCUGGAAUUCUCGGGUGCCAA	1.8
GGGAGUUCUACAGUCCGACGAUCUUGCCAUGUAACAAAUUACUGCUUGACAUGUUGGCAUUCAUAUUAAUUACGGAUGUAAUUCUGUGUAUCUUACUGUGACUCCGAAAACUGUAGUAUUGGUGUCAUGGGAAUGGAAUUCUCGGGUGCCAA	0.325
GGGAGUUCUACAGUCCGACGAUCACUCUGCCUGACGAGGAACGCUGGCUCCGAAGAGGCCCUGUGUAGAAGGCUGUCAGCUGCUCAGCCUGCUUUGAGCCUCAGUGAGAAGUCCUUCCGACAGGAGCUGACUCUGGAAUUCUCGGGUGCCAA	0.368
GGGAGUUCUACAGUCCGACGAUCAGAAUUGCAUUCAUGGCUUUCAAUUGUAAAUAUGCUAAGGGUAUUUUAAUAAAUCUUGGUUUCAUGUCAUCUGGUGUGCAAUGCAGAUUUGUUUUCAGGAGGCAUGUAAAUGGAAUUCUCGGGUGCCAA	1.06
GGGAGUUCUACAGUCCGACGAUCCAAAGAAGCCUUAAUGUUCAAGCUUUAGAAAGAUCAGAGCAAUUUUUCUCUUUCAGUCCAAACUAAGACUCUCUGUAUUUAAAUCUCUCUGGGGCAAGAGGGCUAGAUUUUGGAAUUCUCGGGUGCCAA	0.84
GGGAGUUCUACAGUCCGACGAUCUGUGCCAUACCAGCUGAUCUGUAGGCCUUUUCUAUGAGUCCUACUCCAUCAGGGUUUCUGCUGUUAGAAACAGGCCAAUUAUCUGCCAGGUGAAGGAAGGCAUCCCUUGUUGGAAUUCUCGGGUGCCAA	0.243
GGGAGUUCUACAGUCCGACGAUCUGGGUGGGCAAUGGCCACCAUGUCUGCACACACCAGAAAUGGACAUUUUCAUAUGCAAUGGAAAACAGCCACAAAAAAACCUACCUUAUAUGGAAGUUGUAGCCCUCUGCUGGAAUUCUCGGGUGCCAA	0.235
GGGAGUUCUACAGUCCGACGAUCGUCUGUCCUGGGGACGUGGAGGGUGGCAGCGUCCCCGCCUGCACCAGUGCCGUCCUGCUGAUGUGGUAGGCUAGCAAUAUUUUGGUUAAAAUCAUGUUUGUGACUGUAACUGGAAUUCUCGGGUGCCAA	0.974
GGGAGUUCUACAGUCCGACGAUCUUAUCAUAGUCUUUUUCUUUCAUUGAGUUUUCAUUUAGACUAGCAUGGCAAGCAGGGUGGCCUUGGACUUUGAUUUAGGGGAUCGUGCUUUGGCCUGGAAAAUAAGCACUUGGAAUUCUCGGGUGCCAA	1.32
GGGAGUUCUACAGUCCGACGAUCACUUCCCUCCCCCUCUGUCAACUGCUGUGAAUGCUGUAUGGUGUGUGUUCUCCUCUGUUACUGAUCUGGAAGUGUGGGAACGUGAACUGAAGCUGAUGGGCUGCGAACAUUGGAAUUCUCGGGUGCCAA	1.61

Study 3 — technique: RNA Bind-n-Seq; molecule type: RNA; sample: in vitro; tested at: 200 nM; notes: whole 134-nt RNA, ends assumed; together with: 150 mM LiCl; relative to: input library; direction: higher = stronger binding; all molecules: 7-deaza-guanosine replaces G
Target: Ras GTPase-activating protein-binding protein 1, full length (G3BP1, Homo sapiens, UniProt Q13283)
Sequence of UniProt Q13283 (whole entry, looked up): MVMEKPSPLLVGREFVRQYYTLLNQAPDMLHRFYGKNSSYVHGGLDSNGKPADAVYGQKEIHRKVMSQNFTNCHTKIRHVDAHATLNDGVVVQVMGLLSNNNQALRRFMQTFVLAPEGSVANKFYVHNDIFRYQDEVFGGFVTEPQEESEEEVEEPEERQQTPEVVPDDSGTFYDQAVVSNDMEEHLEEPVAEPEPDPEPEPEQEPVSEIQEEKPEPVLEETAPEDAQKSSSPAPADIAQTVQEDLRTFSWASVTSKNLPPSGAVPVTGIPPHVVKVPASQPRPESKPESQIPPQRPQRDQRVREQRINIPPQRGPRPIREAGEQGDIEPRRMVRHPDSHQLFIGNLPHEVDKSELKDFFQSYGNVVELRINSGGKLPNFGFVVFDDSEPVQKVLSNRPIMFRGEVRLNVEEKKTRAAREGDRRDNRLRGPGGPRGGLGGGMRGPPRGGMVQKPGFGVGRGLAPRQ
Strand	log2 enrichment
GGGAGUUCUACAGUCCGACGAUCAGUCCUGUGCUACACAUCGUAUGUACCGAAUCGGCCCCGGGGCCCCGGGGCCCCGGGGAAAGUAUUAUGUUACGCCGUUCGGAUCUGCACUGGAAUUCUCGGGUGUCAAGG	-0.0633
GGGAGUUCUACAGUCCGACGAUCUUAGGGCCAAUCUUCGUCAAUAUGGUUUAGAGAAGUAUUACCUUGAUGUCCUGGUUUCAGAUGCAUCUAAACCUUCCUGGAGGAAGGGCAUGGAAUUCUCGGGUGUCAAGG	-1.25
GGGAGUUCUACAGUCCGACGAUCCAAGUCCUGUGCUACACAUCGUAUGUACCGAAUCGGGGAGGGGUGGGGUUUGGGGAAAGUAUUAUGUUACGCCGUUCGGAUCUGCACUUCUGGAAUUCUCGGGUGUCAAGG	-0.0847
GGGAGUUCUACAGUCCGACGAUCAAGUCCUGUGCUACACAUCGUAUGUACCGAAUCGGGGAAAAAGGGGUGGGGUGGGGAAAGUAUUAUGUUACGCCGUUCGGAUCUGCACUUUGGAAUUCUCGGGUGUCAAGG	-0.663
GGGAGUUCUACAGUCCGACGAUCUUGCGAAAAGGACCAAUUCCAGUGCCGGAACGAGCGCUGCAUCCCCUCUGUGUGGAGAUGCGACGAGGACGAUGACUGCUUAGACCACAGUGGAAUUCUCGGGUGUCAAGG	-0.426
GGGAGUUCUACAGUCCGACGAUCUCCAGUCUAGCUUUGGAGAAGCGCCAACCUGCUCACUGCCGCCGACCAGACUGCAUGUUUGGUUGUACUUGUUUGAAAAGAAAAGUUGUAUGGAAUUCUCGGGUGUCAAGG	-0.958
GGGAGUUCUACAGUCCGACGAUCAAGUCCUGUGCUACACAUCGUAUGUACCGAAUCGGGAGGGUUUUUUUGGGAAAGGGAAAGUAUUAUGUUACGCCGUUCGGAUCUGCACUUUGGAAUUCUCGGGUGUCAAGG	0.301
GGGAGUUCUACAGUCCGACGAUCUCAAGUCCUGUGCUACACAUCGUAUGUACCGAAUCGGCCCGGGCCCGGGCCCGGGAAAGUAUUAUGUUACGCCGUUCGGAUCUGCACUUCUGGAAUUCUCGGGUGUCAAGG	-0.615
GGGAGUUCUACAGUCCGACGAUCAAGUCCUGUGCUACACAUCGUAUGUACCGAAUCGGGUUUUGGGGUUUUGGUUUUGGGAAAGUAUUAUGUUACGCCGUUCGGAUCUGCACUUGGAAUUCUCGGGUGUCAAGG	-0.209
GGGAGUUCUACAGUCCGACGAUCAAGUCCUGUGCUACACAUCGUAUGUACCGAAUCGGGUUUUGGGGUUUUGGUUUUGGAAAGUAUUAUGUUACGCCGUUCGGAUCUGCACUUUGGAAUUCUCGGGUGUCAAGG	-0.926
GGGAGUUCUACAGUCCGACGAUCCAAGUCCUGUGCUACACAUCGUAUGUACCGAAUCGGGGAAAGGAAAGGGGAAAGGGAAAGUAUUAUGUUACGCCGUUCGGAUCUGCACUUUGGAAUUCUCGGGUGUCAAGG	-0.634

Study 4 — target: CCNB3, cyclin fold, Cln2 fusion (human); technique: yeast growth competition, sequencing; sample: yeast; notes: weak parent motif; relative to: not given; direction: higher = stronger binding
Starting sequence: CDKN1A docking peptide (human); SKACRRLFGPVDS; partner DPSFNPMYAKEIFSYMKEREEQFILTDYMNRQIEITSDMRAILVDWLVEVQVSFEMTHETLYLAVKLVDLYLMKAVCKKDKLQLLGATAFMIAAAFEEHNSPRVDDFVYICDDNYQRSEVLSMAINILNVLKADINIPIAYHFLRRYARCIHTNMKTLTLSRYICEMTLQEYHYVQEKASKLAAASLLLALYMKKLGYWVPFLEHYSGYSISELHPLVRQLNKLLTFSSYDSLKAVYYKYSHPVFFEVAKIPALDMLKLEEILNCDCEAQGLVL
Substitution	normalised enrichment score
SKPCRRLFGPVDS [A3P]	0.987
SKACRRNFGPVDS [L7N]	0.214
SKACRRLFGIVDS [P10I]	0.608
SKAIRRLFGPVDS [C4I]	0.652
SKACRRLQGPVDS [F8Q]	-0.189
SKACRRLEGPVDS [F8E]	-0.498
SKFCRRLFGPVDS [A3F]	0.275
SKACRRLFGPEDS [V11E]	0.446
SKACRRHFGPVDS [L7H]	0.21
SKKCRRLFGPVDS [A3K]	0.297
SKACRRLFGPYDS [V11Y]	0.665
SKACRHLFGPVDS [R6H]	0.381
SYACRRLFGPVDS [K2Y]	0.57
SKACRRLFRPVDS [G9R]	0.323
SGACRRLFGPVDS [K2G]	0.72
SKACRRFFGPVDS [L7F]	0.0634

Repeated from above (study 4):
Substitution	normalised enrichment score
SKACRRLQGPVDS [F8Q]	-0.189
SKKCRRLFGPVDS [A3K]	0.297
SYACRRLFGPVDS [K2Y]	0.57
SKACRRFFGPVDS [L7F]	0.0634
SKACRRLEGPVDS [F8E]	-0.498
SKACRRLFGPYDS [V11Y]	0.665
